Results from different studies.
Lines come from different studies, so protocols differ. Several values in a cell are separate wells, animals, samples, runs or records.
T1: itself; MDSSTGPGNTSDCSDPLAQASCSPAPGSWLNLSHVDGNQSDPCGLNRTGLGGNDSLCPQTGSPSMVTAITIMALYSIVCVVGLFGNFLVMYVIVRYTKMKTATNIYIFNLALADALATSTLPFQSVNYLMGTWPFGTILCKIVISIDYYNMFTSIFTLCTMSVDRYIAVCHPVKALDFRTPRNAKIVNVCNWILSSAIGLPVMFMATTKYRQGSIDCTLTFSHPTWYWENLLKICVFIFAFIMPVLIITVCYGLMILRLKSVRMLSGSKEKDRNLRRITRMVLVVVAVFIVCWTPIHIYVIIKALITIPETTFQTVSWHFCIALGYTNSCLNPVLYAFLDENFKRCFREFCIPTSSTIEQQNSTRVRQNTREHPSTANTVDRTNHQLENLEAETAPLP
B1: Oprm1 full length with N-terminal SNAPf (Rattus norvegicus, UniProt P33535); chain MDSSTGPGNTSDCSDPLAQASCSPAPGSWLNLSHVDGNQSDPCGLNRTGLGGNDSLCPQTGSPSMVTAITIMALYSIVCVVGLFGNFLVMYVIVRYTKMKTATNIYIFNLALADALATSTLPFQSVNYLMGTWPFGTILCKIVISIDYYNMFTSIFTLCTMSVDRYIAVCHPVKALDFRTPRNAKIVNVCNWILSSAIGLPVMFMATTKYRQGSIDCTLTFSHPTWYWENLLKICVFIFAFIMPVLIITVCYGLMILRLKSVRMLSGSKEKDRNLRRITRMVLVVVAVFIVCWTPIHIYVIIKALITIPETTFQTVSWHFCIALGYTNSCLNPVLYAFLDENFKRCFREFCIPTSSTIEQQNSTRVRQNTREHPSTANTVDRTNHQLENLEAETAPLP
Chain of UniProt P13590 (whole entry, looked up): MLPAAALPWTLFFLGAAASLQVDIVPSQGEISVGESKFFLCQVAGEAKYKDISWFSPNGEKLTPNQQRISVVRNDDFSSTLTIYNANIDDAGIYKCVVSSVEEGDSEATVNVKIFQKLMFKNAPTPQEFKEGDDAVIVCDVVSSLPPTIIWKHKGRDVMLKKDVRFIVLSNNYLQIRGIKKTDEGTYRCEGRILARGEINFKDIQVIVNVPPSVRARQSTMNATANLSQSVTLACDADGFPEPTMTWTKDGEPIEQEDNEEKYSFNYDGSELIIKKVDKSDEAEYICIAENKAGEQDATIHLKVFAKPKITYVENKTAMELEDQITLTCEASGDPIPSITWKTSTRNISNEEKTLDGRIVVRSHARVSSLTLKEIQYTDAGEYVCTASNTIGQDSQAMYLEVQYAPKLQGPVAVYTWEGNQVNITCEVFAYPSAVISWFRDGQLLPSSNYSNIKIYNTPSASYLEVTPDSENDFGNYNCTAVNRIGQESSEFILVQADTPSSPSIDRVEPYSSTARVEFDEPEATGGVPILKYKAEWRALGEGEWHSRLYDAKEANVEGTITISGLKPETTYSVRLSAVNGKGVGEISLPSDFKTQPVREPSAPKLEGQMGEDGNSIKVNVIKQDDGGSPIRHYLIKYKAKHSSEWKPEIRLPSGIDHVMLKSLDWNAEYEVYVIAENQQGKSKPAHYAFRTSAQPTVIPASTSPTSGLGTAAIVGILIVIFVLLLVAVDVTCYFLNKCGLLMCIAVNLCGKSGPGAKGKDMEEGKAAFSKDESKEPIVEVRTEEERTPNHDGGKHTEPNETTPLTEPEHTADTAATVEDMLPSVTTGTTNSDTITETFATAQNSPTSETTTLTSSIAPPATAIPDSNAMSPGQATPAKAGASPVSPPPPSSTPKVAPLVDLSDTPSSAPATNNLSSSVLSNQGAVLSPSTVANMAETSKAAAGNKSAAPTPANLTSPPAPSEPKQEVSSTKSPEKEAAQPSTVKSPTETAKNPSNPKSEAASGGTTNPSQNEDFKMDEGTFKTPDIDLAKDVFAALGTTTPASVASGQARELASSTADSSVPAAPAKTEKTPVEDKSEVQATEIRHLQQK

| Substance | partner | assay | system | conditions | how to read | quantity | result |
| --- | --- | --- | --- | --- | --- | --- | --- |
| B1 | T1, itself | single-molecule colocalisation imaging | CHO-K1 | 37 °C, no agonist, in cells |  | homodimer lifetime | 122 ms |
| dpo1 D231A/D318A (Saccharolobus solfataricus) | itself | DNA synthesis rate |  | positive allostery fit |  | Kd | 543 nM |
| LL-37 mature (Homo sapiens) | itself | native MS | nanodiscs |  |  | molecule per partner | 2 and 6 |
| NCAM1, polysialic acid removed (Gallus gallus, UniProt P13590) | itself | apparent initial rate | brain membrane vesicles |  | relative to: untreated vesicles, higher = faster aggregation | aggregation rate | 3.3 fold |
| GCN4 leucine zipper | itself | two-hybrid |  | early |  | β-galactosidase activity | 360 Miller units |
| MAPT R1R3 peptide, acetyl-lysine, three lysines | itself | ThT fluorescence aggregation |  |  |  | t1/2max | 13.4 h |
| vapC Y72A (Salmonella typhimurium) | itself | lacZ reporter |  |  | relative to: wild type, higher = more transcription | vapBC transcription | 7 fold |
| Clip1 (Rattus norvegicus, UniProt Q9JK25) | itself | scanning force microscopy |  | end-to-end association |  | oligomer fraction | 20.5% |
| GCN4 leucine zipper (Saccharomyces cerevisiae) | itself | bacterial two-hybrid |  | 48 h, 30 °C | higher = stronger interaction | β-galactosidase activity | 3540 Miller units |
| MAPT R2R3 peptide, acetyl-lysine, second and third | itself | self-assembly into fibrils, ThT fluorescence, negative-stain TEM |  | 500 µM, pH 7.4, acetylated peptide, TFA-disaggregated |  | t1/2max of aggregation | 43.2 h |
| FUS RNA-binding domain | itself | nanoparticle tracking analysis |  | 1 µM | relative to: PLD of FUS, higher = greater increase | cluster abundance increase | > 10 fold |
| DUT nuclear isoform (Homo sapiens) | itself | non-reducing SDS-PAGE western blot | total cell extracts | 18 h, not purified, added: hydrogen peroxide 0.1-0.5 mM | relative to: untreated cells, higher = more dimer | dimer formation | 5 fold |
